# Measurements gathered from unrelated publications.
# Compare with care: the assays were run in different laboratories. “And” joins repeats or separate records; there may be more than shown. ± gives the spread as reported.
Substance,test,test system,conditions,scale,quantity,value
COc1cccc(N2CCN(C3=Nc4c(F)cccc4[C@H](CC(=O)O)N3c3cc(C(F)(F)F)ccc3OC)CC2)c1,,"healthy women, plasma","intravenous infusion, 240 mg, day 1, single dose, 30-min infusion",,AUC(0-inf),30100 ± 5480 ng·h/mL
C=CC(N)CCC(=O)O (stereo not drawn),,"male Sprague-Dawley rat, plasma","oral, 10 mg/kg, formulation 10, with: Sar 200 mg/kg",,Tmax (median),0.67 h
CCCSc1ccc2nc(NC(=O)OC)[nH]c2c1,shake-flask,PEG400,37 °C,,thermodynamic solubility,≥ 5.75 mg/g
CCCCN1CCC(N(Cc2ccccc2)C(=O)Nc2cc(F)cc(C(F)(F)F)c2)CC1,,"CD-1 female mouse, liver microsomes",0.8 µM,,intrinsic clearance,22 mL/min/kg
CCCC[C@@H]1NC(=O)[C@@H](NC(=O)[C@H](CCC(=O)O)NC(=O)CNC(=O)CN2CCN(CC(=O)O)CCN(CC(=O)O)CCN(CC(=O)O)CC2)CCCCNC(=O)C[C@@H](C(N)=O)NC(=O)[C@H](C(C)C)NC(=O)[C@@H]2CCCN2C(=O)[C@H](CCCNC(=N)N)NC(=O)CNC(=O)[C@H](Cc2c[nH]c3ccccc23)NC(=O)[C@H](CCCNC(=N)N)NC(=O)[C@@H](Cc2ccccc2)NC(=O)[C@H](Cc2c[nH]cn2)NC(=O)[C@H](CCC(=O)O)NC1=O [indium-111 labelled],,"normal C57 mice, skin","intravenous, 0.037 MBq, 24 h",,tissue uptake,0.06 ± 0.01 %ID/g
Clc1ccccc1C(c1ccccc1)(c1ccccc1)n1ccnc1,shake-flask,soybean oil,37 °C,,thermodynamic solubility,15.1 ± 0.76 mg/g
[2H]C([2H])([2H])Oc1cc2c(cc1OC([2H])([2H])[2H])C1CC(=O)C(CC(C)C)CN1CC2 (stereo not drawn),refers to: deuterated β-HTBZ,"healthy human volunteers, plasma","oral, 6 mg single dose, standard meal",,dose-normalized AUC(0-t),4.1 ng·h/mL
CCCOc1ccc([C@H]2CNC(=O)N2c2ccc3[nH]cnc3c2)cc1,,"non-elderly adults, fasted, plasma","oral, 20 mg twice daily, day 11, 2 to 12 h postdose, oral solution, geometric mean",,effective half-life,2.46 h
OCCN(CCO)c1nc(N2CCCCC2)c2nc(N(CCO)CCO)nc(N3CCCCC3)c2n1,shake-flask,polysorbate 80,37 °C,,thermodynamic solubility,8.31 ± 0.37 mg/g
CCc1cc2c(cc1N1CCC(N3CCOCC3)CC1)C(C)(C)c1[nH]c3cc(C#N)ccc3c1C2=O,,"severe hepatic impairment patients, plasma, total","oral, 300 mg single dose, fed",,Vz/F,5330 L
Cc1nc2cccc(OCC(C)(C)C(=O)NC(C)C)c2c(N)c1C(=O)O,,"female Sprague-Dawley rat, plasma","dietary, 30 mg/kg/day, day 90",,Cmax,31.2 ng/mL
CC(C)(Oc1ccc(CCNC(=O)c2ccc(Cl)cc2)cc1)C(=O)O,shake-flask,Captex 355,37 °C,,thermodynamic solubility,0.22 ± 0.01 mg/g
des-acyl ghrelin (human),,"Ghsr knockout mice, whole brain","intravenous, dose not given, 10 min, vascular space corrected",,tissue/serum ratio,7.98 µL/g
CCCCCCCCC[C@H](O)CC(=O)CCc1ccc(O)c(OC)c1,,"rat, small intestine site 4 contents","oral, dose not given, 2 h, no β-glucuronidase treatment",baseline: ingested amount,recovery,1.51%
CS(=O)(=O)Nc1ccc(C(=O)O[C@@H](Cc2c(Cl)c[n+]([O-])cc2Cl)c2ccc(OC(F)F)c(OCC3CC3)c2)cc1OCC1CC1,,"human, plasma","inhalation, 2400 µg twice daily, day 1, median",,tmax,3 h
CC(=O)Oc1ccc(/C=C\C(=O)Nc2ccc(S(N)(=O)=O)cc2)cc1OC(C)=O,,n-octanol/PBS,pH 7.4,,log P,0.199
Cn1cc(-c2cn3nccc3c(-c3cnn([C@]4(CC#N)C[C@@H](C#N)C4)c3)n2)cn1,,"healthy Japanese human, plasma","400 mg once daily, day 1, multiple dose, fed, geometric mean",,dose-normalized Cmax,1.7 ng/mL/mg
Cc1cc(-c2cc(OC(=O)c3ccccc3)ccc2Cl)cc2nnc(Nc3ccc(OCCN4CCCC4)cc3)nc12,,"Dutch Belted rabbit, choroid","topical ocular, 40 µL drop of 0.6%, 2 h",,tissue concentration,34 nM
[11CH3]c1ccccc1S[C@@H](c1ccccc1)[C@@H]1CNCCO1,,1-octanol/phosphate buffer,pH 7.4,,log P,2 to 2.47
CCN(CC)CCNC(=O)c1c(C)[nH]c(/C=C2\C(=O)Nc3ccc(F)cc32)c1C,,human,"oral, 50 mg/day, day 15-29, efavirenz group",,"Cmin,ss",17.7 ± 7.7 ng/mL
COc1cc(F)c(F)c(Nc2ccc(I)cc2F)c1NS(=O)(=O)C1(C[C@H](O)CO)CC1,,"human patients, plasma","oral, 30 mg twice daily, cycle 1 day 15, with: copanlisib 0.6 mg/kg intravenous weekly",,AUC(0-8 h),2560 ng·h/mL
C[C@](N)(Cc1ccc(O)c(O)c1)C(=O)O,static gravimetric method,"supercritical CO2, 606.8 kg/m3","5 h, 333 K, pressure 15 MPa",,solubility,82.6 µg/mL
CCC[C@H](NC(=O)OCC1c2ccccc2-c2ccccc21)C(=O)O,reversed-phase HPLC,,,baseline: fluorinated over non-fluorinated analogue,retention time difference,13.8 min
O=C(O)c1cc(-c2ccc(F)cc2F)ccc1O,shake-flask,soybean oil,37 °C,,thermodynamic solubility,7.86 ± 0.59 mg/g
CNC(=O)c1cc(Oc2ccc(NC(=O)Nc3ccc(Cl)c(C(F)(F)F)c3)cc2)ccn1,Holter ECG,human,"oral, 400 mg twice daily, 1 cycles",,QTc change from baseline,50 ms
O=C(c1ccc(OCCN2CCCCC2)cc1)c1c(-c2ccc(O)cc2)sc2cc(O)ccc12,,"healthy humans, plasma","oral, 60 mg, with: acute green tea",,AUC(0-96 h),0.0085 µM·h
CC1=C(/C=C/C(C)=C/C=C/C(C)=C/C(=O)O)C(C)(C)CCC1,refers to: developmental marker expression,hiPSC-derived embryoid bodies,teratogenicity 20 %,,threshold concentration,0.1 nM
CCCC[C@H](NC(C)=O)C(=O)N[C@H]1CCC(=O)NC[C@@H](C(=O)N[C@@H](Cc2c[nH]c3ccccc23)C(N)=O)NC(=O)[C@H](CCCNC(=N)N)NC(=O)[C@@H](Cc2ccccc2)NC(=O)[C@H](Cc2c[nH]cn2)NC1=O,,"male Sprague-Dawley rat, plasma","subcutaneous, 5 mg/kg, multiple doses, once daily",,CL/F,16.2 mL/min/kg
COc1ccc([C@@H]2CC(=O)c3c(O)cc(O)cc3O2)cc1O,mass spectrometry,Caco-2,"40 µM, 6 h",,Papp A→B,7.28 ×10⁻⁶ cm/s
CC(=O)N[C@@H](Cc1ccccc1)C(=O)N[C@H]1CCCNC(=O)[C@H](CCCNC(=N)N)NC(=O)[C@H](Cc2c[nH]c3ccccc23)NC(=O)[C@@H](CC2CCCCC2)NC(=O)[C@@H]2CCCN2C1=O,,"C57BL/6J mouse, plasma","intravenous, 1 mg/kg single dose",,Cmax,17400 ng/mL
CC[C@H](C)[C@@H]1NC(=O)[C@H](Cc2ccc(O)cc2)NC(=O)[C@@H](N)CSSC[C@@H](C(=O)N2CCC[C@H]2C(=O)N[C@@H](CC(C)C)C(=O)NCC(N)=O)NC(=O)[C@H](CC(N)=O)NC(=O)[C@H](CCC(N)=O)NC1=O,"microdialysis, radioimmunoassay","C57BL/6J male mice, wild type, hippocampus extracellular fluid","intranasal, 12 µg",,Cmax,2.7 ± 1.24 pg/sample
COc1cccc(CN)c1O,,"male C57BL/6 mouse, heart","intraperitoneal, 200 mg/kg, single dose",,half-life,0.5 h
COc1cc(C)c(/C=C/C(C)=C/C=C/C(C)=C/C(=O)O)c(C)c1C,shake-flask,PEG400,37 °C,,thermodynamic solubility,1.07 ± 0.01 mg/g
C[C@]12CC[C@@H]3c4ccc(O)cc4CC[C@H]3[C@@H]1C[C@@H](O)[C@@H]2O,GC-MS,"breast cancer women on NSAI, serum","vaginal, 0.03 mg daily, 6 h, day 28",,maximum serum concentration,0.0395 ng/mL
O=C(Nc1ccc2sc(-c3ccc(F)c(F)c3)nc2c1)N1CCC(F)(F)C1,,"mice, brain","intraperitoneal, 5 mg/kg, 1 h",,brain concentration,> 16 µM
CCN1CCN(Cc2ccc(-c3cc4c(N[C@H](C)c5ccccc5)ncnc4[nH]3)cc2)CC1,,"human, tumour tissue","250 mg, 12 h after dose",,tumour concentration,1280 ng/mL
CS(=O)(=O)OC[C@H](O)[C@@H]1CO1,,"Wistar rat, female, red blood cells","intraperitoneal, 500 mg/kg treosulfan, 1 h",,concentration in red blood cells,11 µM and 15 µM and 30 µM
CC1(C)Oc2cc3oc(=O)ccc3cc2C[C@@H]1O,,"CD-1 mouse, male, testes","oral gavage, 80 mg/kg daily, 4 weeks",,organ weight,0.27 ± 0.03 g
CNCc1ccc(-c2[nH]c3cc(F)cc4c3c2CCNC4=O)cc1,,"human patients, plasma","oral, 840 mg twice daily, day 1, 12 h, arithmetic mean",,AUC(0-t),13200 ng·h/mL
CC(=O)c1c(C)c2cnc(Nc3ccc(N4CCNCC4)cn3)nc2n(C2CCCC2)c1=O,shake flask,water,pH 6.5,,thermodynamic solubility,34 µg/mL
O=C(CCCCCCC(=O)Nc1ccccc1)NO,,"human, serum","oral, 600 mg twice daily",,AUC(0-8 h),14.3 µM·h
CCC(C)n1ncn(-c2ccc(N3CCN(c4ccc(OCC5COC(Cn6cncn6)(c6ccc(Cl)cc6Cl)O5)cc4)CC3)cc2)c1=O (stereo not drawn),shake-flask,soybean oil,37 °C,,thermodynamic solubility,0.09 ± 0.01 mg/g
COc1cc(/C=C/c2ccc(N)cc2)cc(OC)c1,,"rat, serum","oral, 40 mg/kg daily for three days, 24 h",,concentration,210 ± 1 ng/mL
COc1c(N2C[C@@H]3CCCN[C@@H]3C2)c(F)cc2c(=O)c(C(=O)O)cn(C3CC3)c12,,"male Hartley guinea pig, anaesthetized","intravenous infusion, 10 mg/kg, 10 min infusion",baseline: baseline,QTc change,18.3 ± 4.4%
O=C1N=C(N2CCOCC2)CN1c1ccc(Cl)cc1,,"beagle dog, both sexes, plasma","oral, 30 mg/kg twice daily, day 5, tablets, after 4 days dosing",,apparent oral clearance,7.8 mL/min/kg
O=C(O)CNC(=O)c1ccco1,,"human hemodialysis patients, plasma",pre-treatment,baseline: hemodialysis over normal subjects,total plasma concentration ratio,64
CCCCOC(=O)N1CCN(C(=O)[C@H](CP(=O)(O)O)NC(=O)c2cc(N3CC[C@H](OC)C3)nc(-c3ccccc3)n2)CC1,,"healthy human, plasma","subcutaneous, 4 mg, with: rifampin 600 mg i.v.",geometric mean,Vd/F,35.5 L
N[C@@H](CC(=O)N1CCn2c(nnc2C(F)(F)F)C1)Cc1cc(F)c(F)cc1F,,"healthy Korean subjects, plasma","oral, 100 mg single dose, ABCB1 G2677T/A TA",,AUC(0-2 h),478 ± 159 ng·h/mL
Cc1cc(Nc2cc3ncccc3c(N[C@@H]3C[C@H]4CC[C@@H](C3)N4CCC#N)n2)n[nH]1,,"beagle dog, female, plasma","oral, 10 mg/kg/day, last day of 4 weeks",,Cmax,10.4 ng/mL
O=C(CCCN1CCC(O)(c2ccc(Cl)cc2)CC1)c1ccc(F)cc1,,"male Hartley guinea pig, anaesthetized","intravenous infusion, 1 mg/kg, 10 min infusion",baseline: baseline,QTc change,15.8 ± 3.6%
CCOc1nc2cccc(C(=O)OC(C)OC(=O)OC3CCCCC3)c2n1Cc1ccc(-c2ccccc2-c2nnn[nH]2)cc1 (stereo not drawn),shake-flask,Captex 355,37 °C,,thermodynamic solubility,0.71 ± 0.02 mg/g
Cn1cc(-c2ccc(S(=O)(=O)[C@@H]3C[C@@H](C(=O)NC4(C#N)CC4)N(C(=O)C4(C(F)(F)F)CC4)C3)c(C(F)(F)F)c2)cn1,,human,"oral, fed state",baseline: 10 mg fasted,relative bioavailability,18%
CN1CC[C@@H](NC(=O)Nc2ccc(C#N)cc2)C[C@@H]1c1nc2ccccc2[nH]1,,"Japanese patients, plasma","oral, 25 mg once daily, cycle 1 day 21, steady state, geometric mean",,average plasma concentration,190 ng/mL
CC(C)[C@H](NC(=O)[C@@H]1CCCN1C(=O)[C@H](CCCNC(=N)N)NC(=O)[C@H](CS)NC(=O)[C@H](Cc1c[nH]c2ccccc12)NC(=O)[C@H](CCCNC(=N)N)NC(=O)[C@@H](Cc1ccccc1)NC(=O)[C@H](Cc1c[nH]cn1)NC(=O)[C@H](CCC(=O)O)NC(=O)[C@H](CS)NC(=O)[C@H](CS)NC(=O)[C@H](CCCCN)NC(=O)[C@@H]1CC(=O)N[C@@H](CCCNC(=N)N)C(=O)N[C@@H](C(C)C)C(=O)N[C@@H](CC(=O)O)C(=O)N[C@H](Cc2ccc(O)cc2)C(=O)N1)C(N)=O [technetium-99m labelled],,"female C57 mouse, B16/F1 melanoma, kidneys","intravenous, dose not given, 2 h, with: NDP-MSH 10 µg co-injected",,tissue uptake,67.2 ± 9.72 %ID/g

# Repeated from above:
Substance,test,test system,conditions,scale,quantity,value
CCCC[C@H](NC(C)=O)C(=O)N[C@H]1CCC(=O)NC[C@@H](C(=O)N[C@@H](Cc2c[nH]c3ccccc23)C(N)=O)NC(=O)[C@H](CCCNC(=N)N)NC(=O)[C@@H](Cc2ccccc2)NC(=O)[C@H](Cc2c[nH]cn2)NC1=O,,"male Sprague-Dawley rat, plasma","subcutaneous, 5 mg/kg, multiple doses, once daily",,CL/F,16.2 mL/min/kg
COc1c(N2C[C@@H]3CCCN[C@@H]3C2)c(F)cc2c(=O)c(C(=O)O)cn(C3CC3)c12,,"male Hartley guinea pig, anaesthetized","intravenous infusion, 10 mg/kg, 10 min infusion",baseline: baseline,QTc change,18.3 ± 4.4%
CC[C@H](C)[C@@H]1NC(=O)[C@H](Cc2ccc(O)cc2)NC(=O)[C@@H](N)CSSC[C@@H](C(=O)N2CCC[C@H]2C(=O)N[C@@H](CC(C)C)C(=O)NCC(N)=O)NC(=O)[C@H](CC(N)=O)NC(=O)[C@H](CCC(N)=O)NC1=O,"microdialysis, radioimmunoassay","C57BL/6J male mice, wild type, hippocampus extracellular fluid","intranasal, 12 µg",,Cmax,2.7 ± 1.24 pg/sample
CCOc1nc2cccc(C(=O)OC(C)OC(=O)OC3CCCCC3)c2n1Cc1ccc(-c2ccccc2-c2nnn[nH]2)cc1 (stereo not drawn),shake-flask,Captex 355,37 °C,,thermodynamic solubility,0.71 ± 0.02 mg/g
